Measured values pooled from the literature.
± marks the error that the study gave.
Sequence of UniProt P22413 (whole entry, looked up): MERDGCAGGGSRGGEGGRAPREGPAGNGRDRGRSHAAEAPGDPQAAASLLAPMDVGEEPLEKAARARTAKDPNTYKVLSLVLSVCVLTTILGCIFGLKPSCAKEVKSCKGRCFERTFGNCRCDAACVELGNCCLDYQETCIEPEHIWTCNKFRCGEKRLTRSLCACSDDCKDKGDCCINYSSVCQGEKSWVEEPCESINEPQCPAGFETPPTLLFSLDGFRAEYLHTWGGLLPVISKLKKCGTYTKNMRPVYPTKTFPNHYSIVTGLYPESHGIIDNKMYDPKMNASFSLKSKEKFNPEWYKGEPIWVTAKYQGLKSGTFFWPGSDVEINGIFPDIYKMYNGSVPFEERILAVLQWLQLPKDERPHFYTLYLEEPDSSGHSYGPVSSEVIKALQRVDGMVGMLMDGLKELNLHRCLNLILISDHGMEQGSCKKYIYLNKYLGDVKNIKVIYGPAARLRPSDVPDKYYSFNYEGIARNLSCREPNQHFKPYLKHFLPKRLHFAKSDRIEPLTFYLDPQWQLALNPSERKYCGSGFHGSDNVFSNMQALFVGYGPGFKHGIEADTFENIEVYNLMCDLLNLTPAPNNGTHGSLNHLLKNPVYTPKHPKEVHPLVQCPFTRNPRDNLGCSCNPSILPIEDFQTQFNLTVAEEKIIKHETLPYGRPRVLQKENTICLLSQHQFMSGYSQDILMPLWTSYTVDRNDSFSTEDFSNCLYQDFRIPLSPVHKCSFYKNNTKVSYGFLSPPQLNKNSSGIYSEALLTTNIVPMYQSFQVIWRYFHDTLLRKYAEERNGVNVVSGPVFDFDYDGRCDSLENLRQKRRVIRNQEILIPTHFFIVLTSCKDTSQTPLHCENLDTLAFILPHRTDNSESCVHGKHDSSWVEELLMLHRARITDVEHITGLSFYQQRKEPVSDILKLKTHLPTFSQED
Sequence of UniProt Q4GZT4 (whole entry, looked up): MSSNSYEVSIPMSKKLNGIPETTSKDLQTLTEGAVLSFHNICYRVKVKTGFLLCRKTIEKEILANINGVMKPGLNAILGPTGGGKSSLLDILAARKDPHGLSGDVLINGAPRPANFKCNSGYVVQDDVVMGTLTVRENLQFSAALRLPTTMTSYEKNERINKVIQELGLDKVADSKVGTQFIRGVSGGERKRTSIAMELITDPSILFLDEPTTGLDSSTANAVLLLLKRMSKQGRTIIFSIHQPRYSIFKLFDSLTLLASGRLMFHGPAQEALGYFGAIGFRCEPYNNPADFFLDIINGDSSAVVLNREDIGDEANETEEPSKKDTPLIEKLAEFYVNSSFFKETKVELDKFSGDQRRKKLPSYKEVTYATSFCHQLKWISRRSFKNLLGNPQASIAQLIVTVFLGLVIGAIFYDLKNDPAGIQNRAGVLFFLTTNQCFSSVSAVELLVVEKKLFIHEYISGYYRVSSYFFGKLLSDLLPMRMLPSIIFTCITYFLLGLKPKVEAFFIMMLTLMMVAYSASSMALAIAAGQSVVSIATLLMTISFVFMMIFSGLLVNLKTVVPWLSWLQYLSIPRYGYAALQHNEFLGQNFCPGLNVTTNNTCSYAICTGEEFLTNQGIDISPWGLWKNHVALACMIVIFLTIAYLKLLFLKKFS

Structure (SMILES) = Cc1cn([C@H]2C[C@H](N=[N+]=[N-])[C@@H](CO)O2)c(=O)[nH]c1=O; target or system = human PBMC; assay = cytotoxicity, XTT; conditions = CMU08 line; endpoint = TC50; value = > 50 µM
Structure (SMILES) = CC(C)Oc1c(NC(=O)c2ccc(NC(=O)[C@H](CC(N)=O)NC(=O)c3ccc(NC(=O)c4ccc(C#N)cc4)cc3)cc2)ccc(C(=O)Nc2ccc(C(=O)O)cc2)c1O; target or system = Escherichia coli ATCC 25922; system = neutropenic male CD-1 mice, lung; conditions = iv then sc, 67.5 mg/kg/day, 24 h after infection, thigh infection model; endpoint = concentration; value = 18.6 ± 7.1 ng/mL
Structure (SMILES) = COC(=O)c1ccccc1NC(=O)CSc1nnc(-c2ccc(OC)cc2)n1C; target or system = CDK2 (Homo sapiens, UniProt P24941); assay = binding; endpoint = Kd; value = > 100 µM
Structure (SMILES) = CCc1cc(C(=O)NC)c2nccc(N3CCc4c(cc(Cn5ccnc5)cc4-c4cn(C)nc4C(F)(F)F)C3=O)c2c1; system = Sprague Dawley rats; conditions = oral, 100 mg/kg twice daily, 7 days; endpoint = mean corpuscular haemoglobin; value = 19.9 ± 0.26 pg
Structure (SMILES) = CC[C@]1(C)C[C@@H](OC(=O)CSc2nnc(N)[nH]2)[C@]2(C)[C@H](C)CC[C@]3(CCC(=O)[C@H]32)[C@@H](C)[C@@H]1O; target or system = pooled human hepatocyte co-culture; assay = mRNA induction, refers to: CYP2C8 mRNA; conditions = 48 h; endpoint = EC50; value = 2.92 µM
Structure (SMILES) = CNCc1ccc(-c2[nH]c3cc(F)cc4c3c2CCNC4=O)cc1; system = human patients; conditions = oral, 40 mg once daily, grade 500 or higher; endpoint = incidence of neutropenia; value = 11.5%
Structure (SMILES) = CN1C[C@@H]2C[C@H]1CN2c1cc2c(cc1F)c(=O)c(C(=O)O)cn2C1CC1; target or system = Broad substrate specificity ATP-binding cassette transporter ABCG2 (ABCG2, Bos taurus, UniProt Q4GZT4); assay = apical-to-basolateral transport, transepithelial transport; system = MDCK-II transduced with ABCG2, HBSS with HEPES; conditions = 10 µM, 4 h; endpoint = percent transported; value = 16.3 ± 3.47%
Structure (SMILES) = Cc1cc(Nc2ccc(S(F)(F)(F)(F)F)cc2)n2nc(C(C)(F)F)nc2n1; target or system = Plasmodium falciparum; system = P. falciparum malaria patients; conditions = oral, 400 mg; endpoint = patients with gastrointestinal disorders; value = 23.1%
Structure (SMILES) = CCc1nc(N)nc(N)c1-c1ccc(Cl)cc1; target or system = uninfected human foreskin fibroblasts; assay = MTT; conditions = 10 µM, 48 h; endpoint = viability; value = 100%
Structure (SMILES) = Nc1nc2c(ncn2[C@@H]2O[C@@H]3COP(=O)(O)O[C@H]4[C@@H](O)[C@H](n5cnc6c(N)ncnc65)O[C@@H]4COP(=O)(O)O[C@H]2[C@@H]3O)c(=O)[nH]1; target or system = ENPP1 (Homo sapiens, UniProt P22413); assay = substrate; conditions = 8 h; endpoint = remaining compound; value = 80%
Structure (SMILES) = Cc1cc(C)c(S(=O)(=O)N(C)CC(=O)N2CCC(C(N)=O)CC2)c(C)c1; target or system = Cyclin-dependent kinase 2, with cyclin A (CDK2, Homo sapiens, UniProt P24941); endpoint = Kd; value = > 100 µM
Structure (SMILES) = CN1CCN(c2cnc3c(cc(C(=O)NCc4ccc(Cl)cc4)c(=O)n3CC(=O)N3CC(C)(F)C3)n2)C1=O; target or system = herpes simplex virus 2; assay = cytopathic effect; system = G; scale = reference: CC50 over EC50; endpoint = selectivity index; value = > 144
Structure (SMILES) = c1csc(CNc2cc[nH]n2)c1; target or system = human peripheral blood lymphocytes (female); conditions = 1850 µg/mL, 4 h, repeat, with: without S9; endpoint = cells with structural aberrations; value = 1.5%
